{"data": "Experimental data of several laboratories", "note": "A part holds a random share of what one study measured. Several values in a cell are separate wells, animals, samples, runs or records.", "UniProt Q5S007, sequence (whole entry, looked up)": "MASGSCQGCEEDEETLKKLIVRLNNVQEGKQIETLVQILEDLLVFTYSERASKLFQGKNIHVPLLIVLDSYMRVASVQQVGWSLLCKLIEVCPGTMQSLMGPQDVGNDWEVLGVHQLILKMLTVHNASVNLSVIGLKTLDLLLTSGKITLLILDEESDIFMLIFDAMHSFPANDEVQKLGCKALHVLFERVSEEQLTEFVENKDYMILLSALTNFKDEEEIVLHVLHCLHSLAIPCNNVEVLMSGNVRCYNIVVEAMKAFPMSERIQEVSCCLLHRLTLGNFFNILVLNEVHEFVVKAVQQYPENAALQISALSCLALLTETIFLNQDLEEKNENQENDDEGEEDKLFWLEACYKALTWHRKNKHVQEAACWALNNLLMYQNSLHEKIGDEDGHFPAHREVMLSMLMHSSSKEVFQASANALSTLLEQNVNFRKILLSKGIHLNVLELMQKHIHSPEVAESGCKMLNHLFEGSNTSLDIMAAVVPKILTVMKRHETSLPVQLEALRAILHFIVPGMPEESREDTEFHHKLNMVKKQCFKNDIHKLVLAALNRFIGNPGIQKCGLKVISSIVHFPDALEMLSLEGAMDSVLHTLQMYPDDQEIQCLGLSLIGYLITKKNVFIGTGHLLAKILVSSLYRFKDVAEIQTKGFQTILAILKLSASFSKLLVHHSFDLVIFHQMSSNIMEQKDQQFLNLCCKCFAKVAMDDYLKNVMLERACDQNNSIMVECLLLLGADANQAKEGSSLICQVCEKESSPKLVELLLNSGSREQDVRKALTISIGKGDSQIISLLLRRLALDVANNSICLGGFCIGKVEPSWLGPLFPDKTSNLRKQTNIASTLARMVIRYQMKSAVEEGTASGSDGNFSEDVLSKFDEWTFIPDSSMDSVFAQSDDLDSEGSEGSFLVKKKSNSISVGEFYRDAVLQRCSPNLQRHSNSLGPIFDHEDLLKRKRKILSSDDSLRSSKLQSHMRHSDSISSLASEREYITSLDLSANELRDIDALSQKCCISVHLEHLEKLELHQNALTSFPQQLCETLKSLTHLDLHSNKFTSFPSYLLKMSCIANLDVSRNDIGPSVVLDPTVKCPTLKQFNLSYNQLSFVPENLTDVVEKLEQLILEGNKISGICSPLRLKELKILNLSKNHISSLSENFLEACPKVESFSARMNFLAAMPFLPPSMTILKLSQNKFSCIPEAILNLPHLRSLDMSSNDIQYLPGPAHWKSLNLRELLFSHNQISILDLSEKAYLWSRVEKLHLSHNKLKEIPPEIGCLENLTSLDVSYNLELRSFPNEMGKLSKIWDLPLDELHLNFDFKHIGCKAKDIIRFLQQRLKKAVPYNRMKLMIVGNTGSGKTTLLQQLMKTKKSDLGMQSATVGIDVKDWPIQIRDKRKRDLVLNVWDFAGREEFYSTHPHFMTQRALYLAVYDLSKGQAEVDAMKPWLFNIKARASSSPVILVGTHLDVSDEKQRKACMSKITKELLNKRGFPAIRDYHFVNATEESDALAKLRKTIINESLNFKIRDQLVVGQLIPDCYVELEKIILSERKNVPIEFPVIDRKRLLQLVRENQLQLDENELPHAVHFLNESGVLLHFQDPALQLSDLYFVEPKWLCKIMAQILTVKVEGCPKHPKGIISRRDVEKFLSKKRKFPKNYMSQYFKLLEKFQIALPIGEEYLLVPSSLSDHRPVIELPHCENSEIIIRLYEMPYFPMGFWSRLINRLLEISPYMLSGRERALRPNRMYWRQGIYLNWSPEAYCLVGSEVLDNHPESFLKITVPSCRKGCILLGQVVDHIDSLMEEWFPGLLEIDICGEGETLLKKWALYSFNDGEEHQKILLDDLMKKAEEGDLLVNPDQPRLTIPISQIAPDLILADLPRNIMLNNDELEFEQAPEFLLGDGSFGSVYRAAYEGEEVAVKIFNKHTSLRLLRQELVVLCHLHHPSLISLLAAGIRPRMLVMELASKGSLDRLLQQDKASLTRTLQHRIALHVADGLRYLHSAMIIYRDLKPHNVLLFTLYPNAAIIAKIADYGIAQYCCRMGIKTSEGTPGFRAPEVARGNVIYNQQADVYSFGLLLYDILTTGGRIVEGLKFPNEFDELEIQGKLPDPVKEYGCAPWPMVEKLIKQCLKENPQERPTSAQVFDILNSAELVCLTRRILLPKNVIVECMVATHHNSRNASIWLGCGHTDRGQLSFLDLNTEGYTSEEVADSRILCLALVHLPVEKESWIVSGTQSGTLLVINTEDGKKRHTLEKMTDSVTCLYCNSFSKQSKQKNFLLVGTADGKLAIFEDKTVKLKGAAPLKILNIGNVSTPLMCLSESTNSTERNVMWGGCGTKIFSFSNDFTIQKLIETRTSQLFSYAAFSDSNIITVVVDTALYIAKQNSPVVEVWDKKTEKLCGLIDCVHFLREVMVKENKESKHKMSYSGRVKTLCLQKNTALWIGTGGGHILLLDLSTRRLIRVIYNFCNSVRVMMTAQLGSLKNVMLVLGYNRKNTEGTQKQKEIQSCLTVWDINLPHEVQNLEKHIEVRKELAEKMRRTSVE", "UniProt Q9UM73, sequence (whole entry, unmodified, looked up)": "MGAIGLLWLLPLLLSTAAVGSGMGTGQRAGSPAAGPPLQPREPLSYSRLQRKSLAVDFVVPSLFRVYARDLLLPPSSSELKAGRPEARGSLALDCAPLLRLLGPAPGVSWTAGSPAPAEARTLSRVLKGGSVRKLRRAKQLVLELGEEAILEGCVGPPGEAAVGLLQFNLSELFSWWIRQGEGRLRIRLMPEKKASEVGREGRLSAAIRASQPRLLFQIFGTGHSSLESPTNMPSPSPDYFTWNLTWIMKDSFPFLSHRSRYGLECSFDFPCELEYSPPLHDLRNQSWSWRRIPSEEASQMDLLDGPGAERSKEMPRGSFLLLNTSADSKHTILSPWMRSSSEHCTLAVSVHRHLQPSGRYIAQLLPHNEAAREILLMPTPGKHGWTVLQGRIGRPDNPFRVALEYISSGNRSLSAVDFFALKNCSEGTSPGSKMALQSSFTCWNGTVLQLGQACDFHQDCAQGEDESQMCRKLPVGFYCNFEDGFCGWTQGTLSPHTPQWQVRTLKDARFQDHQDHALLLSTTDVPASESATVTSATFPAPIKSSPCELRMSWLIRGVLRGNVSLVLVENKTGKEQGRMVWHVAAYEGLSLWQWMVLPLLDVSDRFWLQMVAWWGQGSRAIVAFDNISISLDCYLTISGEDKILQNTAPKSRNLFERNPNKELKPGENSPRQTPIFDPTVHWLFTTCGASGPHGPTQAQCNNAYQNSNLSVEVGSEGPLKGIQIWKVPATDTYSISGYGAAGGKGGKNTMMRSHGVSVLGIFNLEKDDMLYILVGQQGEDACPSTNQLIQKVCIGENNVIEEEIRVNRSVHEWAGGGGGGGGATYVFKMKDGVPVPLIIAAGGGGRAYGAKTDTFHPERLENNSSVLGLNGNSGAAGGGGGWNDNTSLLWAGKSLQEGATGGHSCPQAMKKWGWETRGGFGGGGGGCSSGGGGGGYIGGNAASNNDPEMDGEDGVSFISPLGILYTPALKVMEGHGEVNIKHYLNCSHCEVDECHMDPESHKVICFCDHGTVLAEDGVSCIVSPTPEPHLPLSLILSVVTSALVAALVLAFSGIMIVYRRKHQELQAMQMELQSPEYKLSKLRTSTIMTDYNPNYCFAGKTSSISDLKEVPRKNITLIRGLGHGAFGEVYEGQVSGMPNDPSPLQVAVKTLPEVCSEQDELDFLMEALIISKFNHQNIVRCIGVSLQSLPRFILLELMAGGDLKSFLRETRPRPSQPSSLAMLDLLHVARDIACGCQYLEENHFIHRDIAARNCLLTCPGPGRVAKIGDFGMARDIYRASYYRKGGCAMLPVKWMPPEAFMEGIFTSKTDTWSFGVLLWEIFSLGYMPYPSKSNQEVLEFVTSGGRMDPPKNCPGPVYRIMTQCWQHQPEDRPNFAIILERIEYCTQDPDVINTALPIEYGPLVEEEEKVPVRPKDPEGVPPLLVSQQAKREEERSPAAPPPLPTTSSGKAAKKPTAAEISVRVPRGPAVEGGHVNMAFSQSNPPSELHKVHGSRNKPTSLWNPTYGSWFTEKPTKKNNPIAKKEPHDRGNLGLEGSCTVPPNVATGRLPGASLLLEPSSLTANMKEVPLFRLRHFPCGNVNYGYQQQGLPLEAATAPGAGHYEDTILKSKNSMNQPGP", "UniProt O15264, sequence (whole entry, looked up)": "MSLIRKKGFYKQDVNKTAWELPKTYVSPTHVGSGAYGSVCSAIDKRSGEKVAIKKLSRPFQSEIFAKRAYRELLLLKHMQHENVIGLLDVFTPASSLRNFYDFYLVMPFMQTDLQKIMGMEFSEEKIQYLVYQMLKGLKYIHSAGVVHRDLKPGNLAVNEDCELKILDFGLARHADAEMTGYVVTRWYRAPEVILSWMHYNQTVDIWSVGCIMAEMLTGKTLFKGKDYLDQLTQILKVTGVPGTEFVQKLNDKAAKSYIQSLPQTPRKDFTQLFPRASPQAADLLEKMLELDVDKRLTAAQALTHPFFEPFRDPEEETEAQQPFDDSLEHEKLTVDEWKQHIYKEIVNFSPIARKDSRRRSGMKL"}
{"data": "Study 1", "Compound": "Cc1cc2c(C(N)=O)c(N)n(-c3c(C)ccc(O)c3C)c2nc1C", "SRC": "Proto-oncogene tyrosine-protein kinase Src (SRC, Homo sapiens, UniProt P12931)"}
{"tested on": "HCC1569", "technique": "automated capillary immunoblot", "refers to": "CDK1 phospho-Thr14", "concentration": "111.11 nM", "inhibition": "65.6%"}
{"tested on": "HCC1569", "technique": "automated capillary immunoblot", "refers to": "CDK1 phospho-Thr14", "concentration": "1.37 nM", "inhibition": "16.6%"}
{"tested on": "MDA-MB-436", "read-out": "cell proliferation", "concentration": "13.72 nM", "inhibition": "-0.19% and 6.84% and 9.62%"}
{"tested on": "SRC", "read-out": "kinase activity", "technique": "HTRF", "concentration": "10 µM", "inhibition": "101%"}
{"tested on": "SW1463", "read-out": "cell proliferation", "concentration": "1.52 nM", "inhibition": "-0.78% and -1.41%"}
{"tested on": "SRC", "read-out": "kinase activity", "action": "inhibitor", "technique": "HTRF", "concentration": "0.1235 µM", "inhibition": "93.1%"}
{"tested on": "NCI-H1648", "read-out": "cell proliferation", "concentration": "41.15 nM", "inhibition": "-23.2% and -33% and -32.4%"}
{"tested on": "U-251 MG", "read-out": "cell growth", "concentration": "3333.33 nM", "inhibition": "83.5%"}
{"tested on": "NCI-H1568", "read-out": "cell growth", "concentration": "10000 nM", "inhibition": "96.6%"}
{"tested on": "HCC1569", "technique": "automated capillary immunoblot", "refers to": "CDK1 phospho-Thr14", "concentration": "0.02 nM", "inhibition": "2.85%"}
{"tested on": "U-251 MG", "read-out": "cell growth", "concentration": "30000 nM", "inhibition": "98.3%"}
{"tested on": "SRC", "read-out": "kinase activity", "technique": "HTRF", "concentration": "0.001524 µM", "inhibition": "19.6%"}
{"tested on": "SRC", "read-out": "enzyme activity", "action": "inhibitor", "technique": "TR-FRET", "concentration": "0.3704 µM", "inhibition": "97.4%"}
{"tested on": "NCI-H1568", "read-out": "cell proliferation", "concentration": "1111.11 nM", "inhibition": "42.8% and 41.1%"}
{"tested on": "SW1463", "read-out": "cell proliferation", "concentration": "10000 nM", "inhibition": "96.7%"}
{"tested on": "SRC", "read-out": "kinase activity", "technique": "HTRF", "concentration": "3.333 µM", "inhibition": "100%"}
{"tested on": "MDA-MB-436", "read-out": "cell proliferation", "concentration": "10000 nM", "inhibition": "95.6%"}
{"tested on": "HCC1569", "technique": "automated capillary immunoblot", "refers to": "CDK1 phospho-Thr14", "concentration": "0.15 nM", "inhibition": "15.3%"}
{"tested on": "MKN-1", "read-out": "cell proliferation", "concentration": "1.524 nM", "inhibition": "-0.87% and -1.09% and -0.69%"}
{"tested on": "NCI-H1648", "read-out": "cell proliferation", "concentration": "4.572 nM", "inhibition": "-21.7% and -23.3% and -18%"}
{"data": "Study 2", "SMILES": "Cc1ccc(NC2=CC(=O)c3sc(C)nc3C2=O)cc1", "read-out": "enzyme activity", "action": "inhibitor", "concentration": "0.5 µM", "baseline": "control"}
{"target": "MAPK13 (Homo sapiens, UniProt O15264)", "remaining activity [%]": 105}
{"target": "MAP3K10 (Homo sapiens, UniProt Q02779)", "remaining activity [%]": 94.6}
{"target": "EPHA5 (Homo sapiens, UniProt P54756)", "remaining activity [%]": 98.2}
{"target": "AKT3 (Homo sapiens, UniProt Q9Y243)", "remaining activity [%]": 92.8}
{"target": "BTK (Homo sapiens, UniProt Q06187)", "remaining activity [%]": 99.2}
{"target": "LYN (Homo sapiens, UniProt P07948)", "remaining activity [%]": 106}
{"target": "PRKG1 (Homo sapiens, UniProt Q13976)", "remaining activity [%]": 104}
{"target": "PRKCD (Homo sapiens, UniProt Q05655)", "remaining activity [%]": 104}
{"target": "LRRK2 (Homo sapiens, UniProt Q5S007)", "remaining activity [%]": 102}
{"target": "MAP4K2 (Homo sapiens, UniProt Q12851)", "remaining activity [%]": 104}
{"target": "PRKCI (Homo sapiens, UniProt P41743)", "remaining activity [%]": 96.9}
{"target": "WNK2 (Homo sapiens, UniProt Q9Y3S1)", "remaining activity [%]": 97.7}
{"target": "KIT (Homo sapiens, UniProt P10721)", "remaining activity [%]": 74.7}
{"target": "NEK4 (Homo sapiens, UniProt P51957)", "remaining activity [%]": 95.3}
{"target": "CSNK2A1 (Homo sapiens, UniProt P68400)", "remaining activity [%]": 98.2}
{"target": "MAPK12 (Homo sapiens, UniProt P53778)", "remaining activity [%]": 99.3}
{"target": "CSNK1A1 (Homo sapiens, UniProt P48729)", "remaining activity [%]": 106}
{"target": "Cyclin-dependent kinase 9, with cyclin T1 (CDK9, Homo sapiens, UniProt P50750)", "remaining activity [%]": 97.6}
{"target": "IRAK4 (Homo sapiens, UniProt Q9NWZ3)", "remaining activity [%]": 124}
{"target": "MAP2K6 (Homo sapiens, UniProt P52564)", "remaining activity [%]": 90.4}
{"target": "PLK2 (Homo sapiens, UniProt Q9NYY3)", "remaining activity [%]": 95.1}
{"target": "MKNK2 (Homo sapiens, UniProt Q9HBH9)", "remaining activity [%]": 89}
{"target": "CHEK1 (Homo sapiens, UniProt O14757)", "remaining activity [%]": 91.1}
{"data": "Study 3", "organism": "Sarcocystis neurona", "read-out": "parasite growth", "concentration": "10 µM", "time": "96 h", "notes": "first screen"}
{"Compound": "CCOc1ccc2ccccc2c1C(=O)N[C@@H]1C(=O)N2[C@@H]1SC(C)(C)[C@@H]2C(=O)O", "inhibition [%]": -3.4}
{"Compound": "CC1=NS(=O)(=O)c2cc(Cl)ccc2N1", "inhibition [%]": -1.3}
{"Compound": "CN(C)CCCSc1ccccc1NC(=O)/C=C/c1ccccc1", "inhibition [%]": 25.1}
{"Compound": "Cc1ccc(NC(=O)c2ccc(CN3CCN(C)CC3)cc2)cc1Nc1nccc(-c2cccnc2)n1", "inhibition [%]": 15}
{"Compound": "CC(=O)OCC(=O)[C@@]12OC3(CCCC3)O[C@@H]1C[C@H]1[C@@H]3CCC4=CC(=O)C=C[C@]4(C)[C@@]3(F)[C@@H](O)C[C@@]12C", "inhibition [%]": 11.6}
{"Compound": "CN(C)CC[C@@H](c1ccc(Cl)cc1)c1ccccn1", "inhibition [%]": -10.3}
{"Compound": "CCCN1C[C@H](CSC)C[C@@H]2c3cccc4[nH]cc(c34)C[C@H]21", "inhibition [%]": -4}
{"Compound": "CO[C@@]1(NC(=O)Cc2cccs2)C(=O)N2C(C(=O)O)=C(COC(N)=O)CS[C@@H]21", "inhibition [%]": -15.7}
{"Compound": "CCN1CCCC1CNC(=O)c1cc(S(=O)(=O)CC)c(N)cc1OC (centres unmarked)", "inhibition [%]": 2.9}
{"Compound": "CCOC(=O)N1CCC(=C2c3ccc(Cl)cc3CCc3cccnc32)CC1", "inhibition [%]": 21}
{"Compound": "NS(=O)(=O)c1cc2c(cc1Cl)N=CNS2(=O)=O", "inhibition [%]": 2.4}
{"Compound": "Nc1nc2c(ncn2CCC(CO)CO)c(=O)[nH]1", "inhibition [%]": 3.9}
{"Compound": "CC(=O)CCCCn1c(=O)c2c(ncn2C)n(C)c1=O", "inhibition [%]": -8}
{"Compound": "CN(C)CCc1c[nH]c2ccc(Cn3cncn3)cc12", "inhibition [%]": -6.1}
{"Compound": "CN(C)CCCN1c2ccccc2CCc2ccccc21", "inhibition [%]": -7.1}
{"Compound": "CC(C(O)c1ccc(O)cc1)N1CCC(Cc2ccccc2)CC1 (centres unmarked)", "inhibition [%]": 7.7}
{"Compound": "CC12CC3CC(C)(C1)CC(N)(C3)C2", "inhibition [%]": -17.3}
{"Compound": "CN(CCOc1ccc(NS(C)(=O)=O)cc1)CCc1ccc(NS(C)(=O)=O)cc1", "inhibition [%]": -1.6}
{"Compound": "COc1cc(C(=O)NS(=O)(=O)c2ccccc2C)ccc1Cc1cn(C)c2ccc(NC(=O)OC3CCCC3)cc12", "inhibition [%]": 12.9}
{"Compound": "CCOC(=O)C1=C(COCCN)NC(C)=C(C(=O)OC)C1c1ccccc1Cl (centres unmarked)", "inhibition [%]": -2.3}
{"Compound": "CC(C)(C)NC(=O)[C@@H]1CN(Cc2cccnc2)CCN1C[C@@H](O)C[C@@H](Cc1ccccc1)C(=O)N[C@H]1c2ccccc2C[C@H]1O", "inhibition [%]": -17.5}
{"data": "Study 4", "SMILES": "C[C@@H](c1cccc(C#N)c1)n1cc(Cl)cc(C(N)=O)c1=N", "read-out": "cell-free assay", "technique": "competition with immobilised ligand", "concentration": "1 µM"}
{"target": "FLT3 (Homo sapiens, UniProt P36888, D835V/ITD)", "remaining binding": "96%"}
{"target": "PIP4K2C (Homo sapiens, UniProt Q8TBX8)", "remaining binding": "85%"}
{"target": "Tyrosine-protein kinase ABL1, non-phosphorylated (ABL1, Homo sapiens, UniProt P00519, H396P)", "remaining binding": "54%"}
{"target": "PTK2 (Homo sapiens, UniProt Q05397)", "remaining binding": "100%"}
{"target": "ALK (Homo sapiens, UniProt Q9UM73, L1196M)", "remaining binding": "82%"}
{"target": "Ribosomal protein S6 kinase alpha-6, C-terminal kinase domain (RPS6KA6, Homo sapiens, UniProt Q9UK32)", "remaining binding": "100%"}
{"target": "MAP3K19 (Homo sapiens, UniProt Q56UN5)", "remaining binding": "94%"}
{"target": "OXSR1 (Homo sapiens, UniProt O95747)", "remaining binding": "93%"}
{"target": "HASPIN (Homo sapiens, UniProt Q8TF76)", "remaining binding": "100%"}
{"target": "Ribosomal protein S6 kinase alpha-3, C-terminal kinase domain (RPS6KA3, Homo sapiens, UniProt P51812)", "remaining binding": "86%"}
{"target": "RIOK2 (Homo sapiens, UniProt Q9BVS4)", "remaining binding": "83%"}
{"target": "ITK (Homo sapiens, UniProt Q08881)", "remaining binding": "82%"}
{"target": "PIK3CA (Homo sapiens, UniProt P42336, H1047Y)", "remaining binding": "100%"}
{"target": "Aurora kinase C (AURKC, Homo sapiens, UniProt Q9UQB9)", "remaining binding": "96%"}
{"target": "PAK5 (Homo sapiens, UniProt Q9P286)", "remaining binding": "97%"}
{"target": "MINK1 (Homo sapiens, UniProt Q8N4C8)", "remaining binding": "96%"}
{"note": "A few entries again (study 3):"}
{"Compound": "CC12CC3CC(C)(C1)CC(N)(C3)C2", "inhibition [%]": -17.3}
{"Compound": "CC1=NS(=O)(=O)c2cc(Cl)ccc2N1", "inhibition [%]": -1.3}
{"Compound": "CC(C(O)c1ccc(O)cc1)N1CCC(Cc2ccccc2)CC1 (centres unmarked)", "inhibition [%]": 7.7}
{"Compound": "CN(C)CC[C@@H](c1ccc(Cl)cc1)c1ccccn1", "inhibition [%]": -10.3}
